# Assay results pooled from the literature.
# Lines come from different studies, so protocols differ.
# Technique: steady-state kinetics
# B1: enzyme W1065M (Limosilactobacillus reuteri, UniProt Q5SBN3); chain INGQQYYIDPTTGQPRKNFLLQNGNDWIYFDKDTGAGTNALKLQFDKGTISADEQYRRGNEAYSYDDKSIENVNGYLTADTWYRPKQILKDGTTWTDSKETDMRPILMVWWPNTVTQAYYLNYMKQYGNLLPASLPSFSTDADSAELNHYSELVQQNIEKRISETGSTDWLRTLMHEFVTKNSMWNKDSENVDYGGLQLQGGFLKYVNSDLTKYANSDWRLMNRTATNIDGKNYGGAEFLLANDIDNSNPVVQAEELNWLYYLMNFGTITGNNPEANFDGIRVDAVDNVDVDLLSIARDYFNAAYNMEQSDASANKHINILEDMGWDDPAYVNKIGNPQLTMDDRLRNAIMDTLSGAPDKNQALNKLITQSLVNRANDNTENAVIPSYNFVRAHDSNAQDQIRQAIQAATGKPYGEFNLDDEKKGMEAYINDQNSTNKKWNLYNMPSAYTILLTNKDSVPRVYYGDLYQDGGQYMEHKTRYFDTITNLLKTRVKYVAGGQTMSVDKNGILTNVRFGKGAMNATDTGTDETRTEGIGVVISNNTNLKLNDGESVVLHMGAAHKNQKYRAVILTTEDGVKNYTNDTDAPVAYTDANGDLHFTNTNLDGQQYTAVRGYANPDVTGYLAVWVPAGAADDQDARTAPSDEAHTTKTAYRSNAALDSNVIYEGFSNFIYWPTTESERTNVRIAQNADLFKSWGITTFELAPQYNSSKDGTFLDSIIDNGYAFTDRYDLGMSTPNKYGSDEDLRNALQALHKAGLQAIADWVPDQIYNLPGKEAVTVTRSDDHGTTWEVSPIKNVVYITNTIGGGEYQKKYGGEFLDTLQKEYPQLFSQVYPVTQTTIDPSVKIKEWSAKYFNGTNILHRGAGYVLRSNDGKYYNLGTSTQQFLPSQLSVQDNEGYGFVKEGNNYHYYDENKQMVKDAFIQDSVGNWYYFDKNGNMVANQSPVEISSNGASGTYLFLNNGTSFRSGLVKTDAGTYYYDGDGRMVRNQTVSDGAMTYVLDENGKLVSESFDSSATEAHPLKPGDLNGQK
# B2: Ptgds (Mus musculus, UniProt O09114); chain QGHDTVQPNFQQDKFLGRWYSAGLASNSSWFREKKAVLYMCKTVVAPSTEGGLNLTSTFLRKNQCETKIMVLQPAGAPGHYTYSSPHSGSIHSVSVVEANYDEYALLFSRGTKGPGQDFRMATLYSRTQTLKDELKEKFTTFSKAQGLTEEDIVFLPQPDKCIQE
# B3: enzyme (Bacillus pumilus, UniProt A8FFI9); chain EARSIAWSVDEFFKNREGTFVIQEVKEKSPWVYNKKRAKERFAPQSTFKVANALIGLQTGAVRDEYDIKYWDGVKREIDNWNRDHTLGSGMRDSVVWYYQAMARDIGEERMNHWVKAIHYGNKDISGGIDQFWLSSTLRISPIEQVRFLKQLYEETLPFDLKNMRTVKRMMVQEEEKHATLYGKTGSGSDIGWYVGFIKHEHKTYILATNIKGTGIEAKDITYRILKKYHLMEASV
# B4: enzyme R237A (Acetivibrio thermocellus, UniProt A3DJ38); chain MKLTIPELSLVVLIGSSGSGKSTFAKKHFKPTEVISSDFCRGLVSDDENDQTVTGAAFDVLHYIVSKRLQLGKLTVVDATNVQESARKPLIEIAKDYHCFPVAVVFNLPEKVCQERNKNRTDRQVEEYVIRKHTQQLKKSIKGLQREGFRYVYILNSPEEVEEVVFERQPLWNNKKDEHGPFDIIGDIHGCYDELKMLLEKLGYLIEEVEGGVGSGKYRVTHPEGRKVLFLGDLVDAGPKITEVLKLVMGMVKSGIALCVPGNHDVKLLRKLNGRDVQITHGLDRTLEQLAKEPQEFIEEVKAFIDGLVSHYVLDDGKLVVAHAGMKEEFQGRGSGKVREFALYGETTGETDEYGLPVRYDWASDYRGKALVVYGHTPQAEVLKVNNTINIDTGCVFGGKLTAYRYPEREIVDVKALKTYYEPAKPFLPKEDMAERFEARTDNDILDINDVLGKKIITTRLMSSITIHEENSIAALEVMSRFAADPHWLIYLPPTMSPCETSKKEGMLEHPIEAFEYFRTRGVGKVVCEQKHMGSRAVVIVCKDSQVAEKRFGVLDGTAGICYTRTGRHFFDDMQLEAELIDRVRKVLDKSGFWGDFNTDWVCLDCELMPWSAKAQKLLEEQYSAVGISGRVVLDEAVKLLKQASLNKTVSFDVSRQTSGKNADINELLQRFTERSEMMQKYVEAYRKYCWPVNSIDDLKLAPFHILATEGKVHSDKNHIWHMDTIAKYCTQDDSLIMATNHILVDVTDAESVDKGIKWWEDLTASGGEGMVVKPYDFIVKNGRELLQPAVKCRGREYLRIIYGPEYTMDENIERLRNRAVGKKRSLALREFSLGMEALERFVRNEPLYRVHECVFGVLALESEPVDPRL
# B5: PDE4A (Homo sapiens, UniProt P27815); chain NIPRFGVKTDQEELLAQELENLNKWGLNIFCVSDYAGGRSLTCIMYMIFQERDLLKKFRIPVDTMVTYMLTLEDHYHADVAYHNSLHAADVLQSTHVLLATPALDAVFTDLEILAALFAAAIHDVDHPGVSNQFLINTNSELALMYNDESVLENHHLAVGFKLLQEDNCDIFQNLSKRQRQSLRKMVIDMVLATDMSKHMTLLADLKTMVETKKVTSSGVLLLDNYSDRIQVLRNMVHCADLSNPTKPLELYRQWTDRIMAEFFQQGDRERERGMEISPMCDKHTASVEKSQVGFIDYIVHPLWETWADLVHPDAQEILDTLEDNRDWYYSAI
# B6: enzyme (Homo sapiens, UniProt Q9NR63); chain MLFEGLDLVSALATLAACLVSVTLLLAVSQQLWQLRWAATRDKSCKLPIPKGSMGFPLIGETGHWLLQGSGFQSSRREKYGNVFKTHLLGRPLIRVTGAENVRKILMGEHHLVSTEWPRSTRMLLGPNTVSNSIGDIHRNKRKVFSKIFSHEALESYLPKIQLVIQDTLRAWSSHPEAINVYQEAQKLTFRMAIRVLLGFSIPEEDLGHLFEVYQQFVDNVFSLPVDLPFSGYRRGIQARQILQKGLEKAIREKLQCTQGKDYLDALDLLIESSKEHGKEMTMQELKDGTLELIFAAYATTASASTSLIMQLLKHPTVLEKLRDELRAHGILHSGGCPCEGTLRLDTLSGLRYLDCVIKEVMRLFTPISGGYRTVLQTFELDGFQIPKGWSVMYSIRDTHDTAPVFKDVNVFDPDRFSQARSEDKDGRFHYLPFGGGVRTCLGKHLAKLFLKVLAVELASTSRFELATRTFPRITLVPVLHPVDGLSVKFFGLDSNQNEILPETEAMLSATV
# B7: UGT2A1 (Homo sapiens, UniProt P0DTE4); chain GNVLIWPMEGSHWLNVKIIIDELIKKEHNVTVLVASGALFITPTSNPSLTFEIYKVPFGKERIEGVIKDFVLTWLENRPSPSTIWRFYQEMAKVIKDFHMVSQEICDGVLKNQQLMAKLKKSKFEVLVSDPVFPCGDIVALKLGIPFMYSLRFSPASTVEKHCGKVPYPPSYVPAVLSELTDQMSFTDRIRNFISYHLQDYMFETLWKSWDSYYSKALGGLLLCCPGWSAVADLGSLQPLLPGFKRFSRLSLHCSWDYRLPAGRPTTLCETMGKAEIWLIRTYWDFEFPRPYLPNFEFVGGLHCKPAKPLPKVLWRYKGKKPATLGNNTQLFDWIPQNDLLGHPKTKAFITHGGTNGIYEAIYHGVPMVGVPMFADQPDNIAHMKAKGAAVEVNLNTMTSVDLLSALRTVINEPSYKENAMRLSRIHHDQPVKPLDRAVFWIEFVMRHKGAKHLRVAAHDLTWFQYHSLDVIGFLLVCVTTAIFLVIQCCLFSCQKFGKIGKKKKRE
# B8: enzyme (Actinobacillus pleuropneumoniae, UniProt A3N2T3); chain MENENKPNVANFEAAVAAKDYEKACSELLLILSQLDSNFGGIHEIEFEYPAQLQDLEQEKIVYFCTRMATAITTLFSDPVLEISDLGVQRFLVYQRWLALIFASSPFVNADHILQTYNREPNRKNSLEIHLDSSKSSLIKFCILYLPESNVNLNLDVMWNISPELCASLCFALQSPRFVGTSTAFNKRATILQWFPRHLDQLKNLNNIPSAISHDVYMHCSYDTSVNKHDVKRALNHVIRRHIESEYGWKDRDVAHIGYRNNKPVMVVLLEHFHSAHSIYRTHSTSMIAAREHFYLIGLGSPSVDQAGQEVFDEFHLVAGDNMKQKLEFIRSVCESNGAAIFYMPSIGMDMTTIFASNTRLAPIQAIALGHPATTHSDFIEYVIVEDDYVGSEECFSETLLRLPKDALPYVPSALAPEKVDYLLRENPEVVNIGIASTTMKLNPYFLEALKAIRDRAKVKVHFHFALGQSNGITHPYVERFIKSYLGDSATAHPHSPYHQYLRILHNCDMMVNPFPFGNTNGIIDMVTLGLVGVCKTGAEVHEHIDEGLFKRLGLPEWLIANTVDEYVERAVRLAENHQERLELRRYIIENNGLNTLFTGDPRPMGQVFLEKLNAFLKEN
# B9: Lxyl-p1-1 A72T (Lentinula edodes, UniProt G8GLN9); chain YFSGLGLGSERSIFRRDLNSTGDESNSTQWPAPLANGGKSWASAFKKAKSTVTEMTVEELANITSGVIGLCVGVTGAVTRLGIPELCLQDGPIGPRGVHGSSQFPAGLTVAATWDRTLMYARARGMGQEFHDQGVHIALAPVTGGPLGRTPLNGRGWEGTFADPYACGEASYQSVKGLTDAGVATVSKHWIAYEQETSRNLYIEFDGVSQADIQLPISSNVDDLTMHELYMWSFAEAVRAGTNHIMCSYNRINNTHSCNNAKGLNQLLKTELNFQGGVVSDWGGQWDSVLSAENGLDVGMPGEGFLGELGDFWGTTLADLINNGTVSEDLVRDKVVRLLTGYYYLGQDINPPPPFVYNTIGAPTLNATSGYRNVRKPGTAELIKEIGSASVTLLKNTGSLPLKHPQRIAVLGNDATYNVLGPNACGLANSACDIDNLNGTLTTGGGSGSALSPYTITPLEALQKRAIEDNAEIAAVVANSNTTTGAEDAIAALLPDADVTFVFLNRYSEEGADAPDFSLGGDGDNLMDLAVTYSSNVVVVIHTTGVVDIEKWADNPNVTAILVAYLPGQEAGNSLVPVLYGDVAPSGKLPWTWGKSIDDYVPNGVVYTDAYSPQSNFTEGVFIDYRWFDKMGITPRYEFGFGLSYTTFTYSNLIVDHGRWAKDYSSVMETAEPFAEWDGTNSLYDVIFTVFATITNTGNLTGSEVAQLYISIPGDNQPVRQLRGFDKIKDLPVGDSAVVTFPIRRKDVSSWSVVDQLWYVPNGDFLISVGGSSRDLPLNTTWTP
# Chain of UniProt Q33DQ2 (whole entry, looked up): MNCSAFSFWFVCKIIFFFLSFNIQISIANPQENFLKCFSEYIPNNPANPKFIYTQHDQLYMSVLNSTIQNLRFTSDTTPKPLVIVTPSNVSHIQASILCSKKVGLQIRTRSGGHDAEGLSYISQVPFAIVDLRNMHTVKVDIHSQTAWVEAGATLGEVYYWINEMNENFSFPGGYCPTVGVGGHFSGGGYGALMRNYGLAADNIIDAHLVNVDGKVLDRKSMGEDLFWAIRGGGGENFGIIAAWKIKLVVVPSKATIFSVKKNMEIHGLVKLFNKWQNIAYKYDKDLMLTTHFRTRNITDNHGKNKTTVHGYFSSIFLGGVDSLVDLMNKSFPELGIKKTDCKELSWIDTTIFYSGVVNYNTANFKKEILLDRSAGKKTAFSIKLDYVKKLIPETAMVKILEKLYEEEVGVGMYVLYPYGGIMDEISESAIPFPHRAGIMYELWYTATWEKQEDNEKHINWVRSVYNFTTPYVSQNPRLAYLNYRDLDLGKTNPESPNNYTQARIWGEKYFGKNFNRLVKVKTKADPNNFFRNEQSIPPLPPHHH
Substance,substrate,pH,temperature,notes,together with,Km [µM]
"pvdF (Pseudomonas aeruginosa, UniProt Q9I184)",Nc1nc(O)c2cc(CN(C=O)c3ccc(C(=O)N[C@@H](CCC(=O)O)C(=O)O)cc3)ccc2n1,pH 7.4,25 °C,,,60
B1 (enzyme W1065M),OC[C@H]1O[C@@](CO)(O[C@H]2O[C@H](CO)[C@@H](O)[C@H](O)[C@H]2O)[C@@H](O)[C@@H]1O,pH 4.7,37 °C,,,6200
B2 (Ptgds),[H][C@]12C[C@]([H])(OO1)[C@H](C/C=C\CCCC(=O)O)[C@H]2/C=C/[C@@H](O)CCCCC,pH 8,25 °C,,,0.8
B3 (enzyme),[H][C@]12SCC(COC(C)=O)=C(C(=O)O)N1C(=O)[C@H]2NC(=O)CCC[C@@H](N)C(=O)O,pH 7,,,,200
B4 (enzyme R237A),Nc1ncnc2c1ncn2[C@@H]1O[C@H](CO)[C@H]2OP(=O)(O)O[C@H]21,pH 7.5,45 °C,,,77000
B5 (PDE4A),Nc1ncnc2c1ncn2[C@@H]1O[C@@H]2COP(=O)(O)O[C@H]2[C@H]1O,pH 7.5,21 °C,,,24
B6 (enzyme),CC1=C(/C=C/C(C)=C/C=C/C(C)=C/C(=O)O)C(C)(C)CCC1,,37 °C,not purified,,0.0188
"NADP-dependent secondary alcohol dehydrogenase (Trichomonas vaginalis, UniProt A2DJ40)",CC(C)=O,pH 6.25,37 °C,,NADPH 200 µM,169
B7 (UGT2A1),Oc1ccc(-c2ccccc2)cc1,,,not purified,,0.9
B8 (enzyme),O=c1ccn([C@@H]2O[C@H](CO[P@@](=O)(O)O[P@@](=O)(O)O[C@H]3O[C@H](CO)[C@@H](O)[C@H](O)[C@H]3O)[C@@H](O)[C@H]2O)c(=O)[nH]1,pH 7.2,37 °C,apparent,,126
"CBCAS (Cannabis sativa, UniProt Q33DQ2)",CCCCCc1cc(O)c(C/C=C(\C)CCC=C(C)C)c(O)c1C(=O)O,pH 5.5,40 °C,,,9.3
B9 (Lxyl-p1-1 A72T),[H][C@]12[C@H](OC(=O)c3ccccc3)[C@]3(O)C[C@H](OC(=O)[C@H](O)[C@@H](NC(=O)c4ccccc4)c4ccccc4)C(C)=C([C@@H](O)C(=O)[C@]1(C)[C@@H](O[C@@H]1OC[C@@H](O)[C@H](O)[C@H]1O)C[C@@]1([H])OC[C@@]21OC(C)=O)C3(C)C,,,,,1180

# For quick reference, copied from above:
Substance,substrate,pH,temperature,notes,together with,Km [µM]
B9 (Lxyl-p1-1 A72T),[H][C@]12[C@H](OC(=O)c3ccccc3)[C@]3(O)C[C@H](OC(=O)[C@H](O)[C@@H](NC(=O)c4ccccc4)c4ccccc4)C(C)=C([C@@H](O)C(=O)[C@]1(C)[C@@H](O[C@@H]1OC[C@@H](O)[C@H](O)[C@H]1O)C[C@@]1([H])OC[C@@]21OC(C)=O)C3(C)C,,,,,1180
B1 (enzyme W1065M),OC[C@H]1O[C@@](CO)(O[C@H]2O[C@H](CO)[C@@H](O)[C@H](O)[C@H]2O)[C@@H](O)[C@@H]1O,pH 4.7,37 °C,,,6200
